Assay results pooled from the literature.
Several values in a cell are separate wells, animals, samples, runs or records. ± gives the spread as reported.
Cell line: HepG2

`CC(=O)c1ccc(C(O)C(C)C)cc1` (racemic) gave a cells killed of 36% (250 µM, 48 h).
`COc1ccc(-c2cc(C(F)(F)F)c3c(N)c(C(=O)N4CCCC4)sc3n2)cc1` — result for IC50: “not toxic” (cell growth; concentration not given, 72 h).
Under IC50, `C#CC[N+]1(CC)CCc2c(sc(NC(=O)c3c(F)c(F)c(F)c(F)c3F)c2C(=O)OCC)C1.[Br-]` (stereo not drawn) is recorded as “not toxic” (cytotoxicity, resazurin; up to 200 µM, 18 h).
For `CC1=CC(=O)c2c(O)cccc2C1=O`, the selectivity index was 0.87 (MTT; reference: IC50 MRC-5 over IC50 HepG2).
`O=c1ccn([C@@H]2O[C@H](CO)[C@@H](O)[C@H]2O)c(=S)[nH]1` has an IC50 of over 50 µM (measured: succinate dehydrogenase subunit A; 120 h).
`CC1=C(O)C(=O)C=C2C1=CC=C1[C@@]2(C)CC[C@@]2(C)[C@@H]3C[C@](C)(C(=O)O)CC[C@]3(C)CC[C@]12C` gave an optical density of 0.493 a.u. and 0.537 a.u. and 0.45 a.u. and 0.488 a.u. and 0.506 a.u. and 0.421 a.u. (cell viability, CCK-8; 3 µM; higher = more viable cells).
The IC50 of `O=C(N[C@H](CO)[C@H](O)c1ccc([N+](=O)[O-])cc1)C(Cl)Cl` is reported as over 100 µM (cell growth; 120 h).
`COc1ccc(-n2nc(C(C)=O)s/c2=N\N=C(/C)c2ccc(NC(C)=O)cc2)cc1` gave a toxicity of 93.8% (5 µM).
The IC50 of `NC(=O)c1nc(F)c[nH]c1=O` is reported as over 400 µM (cell growth; 120 h).
For `CC(C)=CCC[C@](C)(O)[C@H]1CC[C@]2(C)[C@@H]1[C@H](O)C[C@@H]1[C@@]3(C)CC[C@H](O)C(C)(C)[C@@H]3[C@@H](O[C@@H]3O[C@H](CO)[C@@H](O)[C@H](O)[C@H]3O)C[C@]12C`, the optical density was 0.587 a.u. and 0.529 a.u. and 0.481 a.u. and 0.527 a.u. and 0.522 a.u. and 0.602 a.u. (cell viability, CCK-8; 40 µM; higher = more viable cells).
For `NC(=O)c1ncn([C@@H]2O[C@H](CO)[C@@H](O)[C@H]2O)n1`, the IC50 was 45 ± 1.4 µM (measured: succinate dehydrogenase subunit A; 120 h).
The EC50 of `NCCOCC(=O)N1CCCC(C(=O)NCc2nc(-c3ccc(-c4ccc(F)cc4)cc3)cs2)C1` (stereo not drawn) is reported as about 20 µM (cytotoxicity).
